Results collected from several papers.
Numbered parts are unrelated; each lists some results of a single study.

Block 1
Target: Ras GTPase-activating protein-binding protein 1, RRM domain (G3BP1, Homo sapiens, UniProt Q13283)
Sequence of UniProt Q13283 (whole entry, looked up): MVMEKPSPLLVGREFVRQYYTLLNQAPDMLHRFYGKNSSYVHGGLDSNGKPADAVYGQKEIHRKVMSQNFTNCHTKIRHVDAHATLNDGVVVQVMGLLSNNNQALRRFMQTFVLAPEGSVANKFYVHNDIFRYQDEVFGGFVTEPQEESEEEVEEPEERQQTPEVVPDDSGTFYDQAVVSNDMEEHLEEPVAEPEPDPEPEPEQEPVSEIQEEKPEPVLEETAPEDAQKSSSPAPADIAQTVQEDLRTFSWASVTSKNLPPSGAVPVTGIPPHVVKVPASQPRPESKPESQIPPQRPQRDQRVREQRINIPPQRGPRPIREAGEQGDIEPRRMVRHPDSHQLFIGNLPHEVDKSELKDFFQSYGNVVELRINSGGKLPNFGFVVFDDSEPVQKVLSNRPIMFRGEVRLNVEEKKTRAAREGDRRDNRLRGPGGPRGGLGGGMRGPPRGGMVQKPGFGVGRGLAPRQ
Technique: RNA Bind-n-Seq
Form: RNA
Medium: in vitro
Concentration: 1 µM
Notes: whole 134-nt RNA, ends assumed
Added: 150 mM KCl
Relative to: input library
Direction: higher = stronger binding
Measurement: log2 enrichment
Shared flanks, not repeated: GGGAGUUCUACAGUCCGACGAUC … UGGAAUUCUCGGGUGUCAAGG
UCAAUGCCGGCUAUGCCCUGGCCCCAGCCACCAGUGCCAACGACAGCGAGCAGCAGAGCCUGUCCAGCGAUGCAGACACCCUGUCCCUCA: -0.122
UGGCCCUGGUGGCAUGCGGGGAGGAAGAGGUGGCCUCAUGGAUCGUGGUGUUCCCGGUGGAAUGUUCAGAGGUGGCCGUGGUGGAGACAG: 0.315
CACAGACAACACGCACCCACACAGACACAGAGGGAAGAGGUUGGGAUGGGGACAGGGUGCACAGCAGGGCGGGGUAGGACCCCAGCCCCU: -0.0149
GCAGGAAGUAAAAACAAAUGGAAAUGCUUCGGAUAGUGGCAGGGGUGGGGAUUGCUAAGGAAAGGGUGGGAUGGGAGUGGGUAAAGAGUU: 1.37
UGUGCUACACAUCGUAUGUACCGAAUCGGGGUUUUUUUGGGGAAAAAAAGGGGAAAAAGGGGAAAGUAUUAUGUUACGCCGUUCGGAUCU: 0.712
GCAGGAAGUAAAAACAAAUGGAAAUGCUUCGCAUAGUGGCAGGGGUGGGGGUUGCUAAGGAAAGGGUGGGAUGGGAGUGGGUAAAGAGUU: 1.24
GCAGGAAGUAAAAACAAAUGGAAAUGCUUCGGAUAGUGGCAGGGGUGGGGGUUGCUAAGGAAAGAGUGGGAUGGGAGUGGGUAAAGAGUU: 0.817
UCCUGUGCUACACAUCGUAUGUACCGAAUCGGGGAAAAAGGGGAAAAAGGGGUUUGGGGAAAGUAUUAUGUUACGCCGUUCGGAUCUGCA: 1.09
CACAGACAACACGCACCCACACAGACACAGAGGGAAGGGGUUGGGAUGGGGAAAGGGUGCACAGCAGGGCGGGGUAGGACCCCAGCCCCU: -0.0787
ACCAUGCAGGUGGGCAUCUUUGGGAAGUGGGGCAAGGGGGGGAUAGGGAGAGGGGUAACACUUUGGGAACAGGUGGUCCCAGGUCGUUUC: 1.18

Block 2
Target: RNA binding protein fox-1 homolog 2, RRM domain, GST-SBP tag (RBFOX2, Homo sapiens, UniProt O43251-10, residues 100-194)
Technique: RNA Bind-n-Seq
Form: RNA
Medium: in vitro
Concentration: 365 nM
Notes: natural RNA segment, single round, ends assumed
Relative to: no-protein control
Direction: higher = stronger binding
Measurement: RBNS enrichment (R)
Shared flanks, not repeated: GGGAGUUCUACAGUCCGACGAUC … UGGAAUUCUCGGGUGCCAA
Residues (chain): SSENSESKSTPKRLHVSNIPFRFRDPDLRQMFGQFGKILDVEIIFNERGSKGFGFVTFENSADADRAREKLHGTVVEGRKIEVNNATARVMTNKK
GGUGGAGGUUGCAGUGAGCUGAGAUCGUGCCGUUACUCUCCAACCUGGACAACAAGAGCGAAACUCCGUCUUAGAAGUGGACCAGGACAGGACCAGAUUUUGGAGUCAUG: 0.454
UUUUUGUCCUUGCAGACAGAAUAUAAAAACUCCUGGGCUUAAGGCCUAAGGAAGCCAGUCACCUUCUGGGCAAGGGCUCCUAUCUUUCCUCCCUAUCCAUGGCACUAAAC: 0.518
UUUCACAACAAGGAGAAGCCACAGUUUGUGGCAUCCUAUAGUUUUACAUUGUGUAUUUCUUCCUUUUAGGAAAAACCUACCUAGUACAAGCUACCACGUGCACAGACAGC: 0.271
GAGAACAUUCAAUCUUGCCGUCACUAUUCAUCAAUGAAGAUUAACACUGAGAUCCAGAGAGGCUGGAUGACUUGCUCAAGUUCACCAGCAUGGUAGUGGCAAAGAGAGGU: 0.847
UACGUCCUGCCUACAACUCCCGAGUGGCUUUUGGUAGUAACUACCCUGUGUACCCAUUAACAAAGCCAACUAUGUCCUCUCUCCAGAAUGCCCACCCCUACUGUGGCCAC: 0.296
UUAACUCCUUGAGGCCAGGCCAGAAGUGUUAGGAGCUAAGUAUGAAUGAACUGUGUAAUAAGAGAGGCAGAGAAAAUGCAGGACUCCAGUUGAGAAGGCUUAAUCUCCUG: 1.14
UCAUCAGAGGCUGUUUUCCAUGAUCUGGUCCUUCCUCCAGAAAGAAGCAGGAGUUCUCAGAGGAACACGUCCUUCCAUCCAGGAGAAAGUGACUUUCUGUCUGCGGCUGC: 0.279
CUGAACUAAACCCCUGGCUUUUGUGCACACUGCAUACGUUUCAGAACUCCUGGAUGGUAACCAUCUCUGGAGUGCAGCGCUUGCUGCAGUGGAAAUGAUCAGGAAUACUG: 0.246
GAGUUUCCCAGCCCCAAGUGGGGGCUGCUAGGCCCUUCCUCCCUGCCUCUGGGAACCGGGCUGGUGCCCUGCCUUUCCUGAGCAGGGCUCCUCCUCCAGAAGCGGUGGUC: 0.195
AUGCCUUGCACAGAACCAAUUUUUUUUAACUACUGGCCUAUUUUAAUGGUGGUAAAGAGCAUGUUUUGAAAUGCUGUGGAAACCAUCUAUGCUGACAGUCUUGCAGCAUG: 1.4
AAUAAGUUACUAUUUAUUCCGCUCCGCCCCCUCCCUCUCCCUUGAGAAGCUGAGUCUUCUGCAUCAGAUUAUUGCAACAUUUAACCUGAAUUUAAAAGCACACGAAACAA: 1.02
CUUCAAGCGUCAGCUCCAAGUGUCCUUAUGUCAGCAGGAUUUGUUUCCUUCUAGUCCCCCCCCCCCCCAUUAUAGAAAAUAGUAAGGAAAAAUAACAGUUUCAUUGAGAU: 0.463

Block 3
Target: RING finger protein unkempt homolog, zinc fingers 1-6, GST-SBP tag (UNK, Homo sapiens, UniProt Q9C0B0, residues 30-357)
Technique: RNA Bind-n-Seq
Form: RNA
Medium: in vitro
Concentration: not given
Notes: RNA with constant flanks, human and mouse sites, ends assumed
Relative to: input RNA pool
Direction: higher = stronger binding
Measurement: bound/input enrichment
Shared flanks, not repeated: GGGAGUUCUACAGUCCGACGAUC … CAACAGAGGAUUGAGCAUCA
Construct (chain): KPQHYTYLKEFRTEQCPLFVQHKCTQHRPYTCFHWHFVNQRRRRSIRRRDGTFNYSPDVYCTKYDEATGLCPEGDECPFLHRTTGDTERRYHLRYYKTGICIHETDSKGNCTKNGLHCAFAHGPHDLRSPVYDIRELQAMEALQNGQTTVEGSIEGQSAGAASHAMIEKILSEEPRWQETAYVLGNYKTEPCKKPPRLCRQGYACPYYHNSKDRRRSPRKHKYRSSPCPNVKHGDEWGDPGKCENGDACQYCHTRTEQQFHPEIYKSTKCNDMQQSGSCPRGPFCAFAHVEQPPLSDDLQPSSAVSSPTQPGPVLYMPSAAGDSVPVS
GUUGCCAUGUCGGGGAAGCUAGUCCCCGGCAGCCUGGAUGACUGCACAGCGGUGCCCUGGUAUAGCAGAAAAGAGCAGUGAGCUGGAAGGUUAGAGACCGGGCCUCUUACCCUGGAACUC: 3.86 ratio
ACAUUUAAGGAUUUUGUUCUUCAUCCAAGAAGUCACAAAUCAAGAGUUAAAGGUUAUCUGAGAUUAAAAAUGACUUAUUUACCUAAAAAUGGCUCAGAAGAUGAAAAUGCAGACCAGGCU: 0.214 ratio
GUUGUGCAUCAUUUAAAACAUUUUGUAUGUUUCUUCUUAUCUGUGUAUACAGUAUGUUCUUGAAUGAUGUUCAUUUGUCAGGAGAACUGUGAGAAAUAAACUAUGUGGAUACUGUCUGUU: 0.251 ratio
GACACAGUGUGUCUCUCUGAUUGGGCUUCUAAAUCAAAAGCCUGAUGUUCGUGUCCCUCUCAUAGGGGGAGCUUUGGACACAGGACCAGUUUGGAAAAGGGUCAGGUAAGGGUUUCCACU: 0.143 ratio
UAUAGUGUAAUAUAUAUAUAAUAGCUCUAAUUAUAAAUACACUUUUACUCUGGAAAAAGCAUAGACAUUGACAUAAGAGACAUUUAAAAACCAUUAUUUUCUCAUCUGUAAAAUGGAGAG: 1.26 ratio
AAAGAUGCCUUAAGCCAUUUUGUAAUUGCAGGAGCACUCCUGUAGGAGGCCUGCUGAUGGCAUUUCAGAAGUACUCUGGUGAGACUGUUCAGGAAAGAAAACAGAAGGAUCGAAAGGCAC: 0.186 ratio
GCGGGUGUAAGGGGAUAUCUUGAUAAACUGGAGCCCAGCAAGAUUACAAAGUUUGAGAAUGCUUUCUUGUCUCAUGUCGUCAGCCAGCACCAAGCCUUGUUGGGCACUAUCAGGGCUGAU: 0.122 ratio
GGAAUAUUCAUUGUGCUGAAUAUUACCCUUGUGUUUGCAGCUGUAUUUAAACUUGAAACAGAUAGAACUGUAUGGCCCUUGAUAAGAAUCUAUCGGGGUGGCUUUCUUCUGAUUGAAUUC: 0.107 ratio
AAGACAACUUCUAUUGAAGUAUUUAUUUUACAAAGAUGAUUUUGUGUUUACCUGUGUUCACUUUGUUUCAUGUUGUUGCCACUGUUGGCUGCUAUUGGAGUCUGAUGGAGGGGUCCUUUG: 0.31 ratio
GUCUGACCGCGGCGUCGGGACCUGGUUUCCGGGCAUGAGCUGAGAGCACCACGCCGAGGCCACGAGUAUUUCAUAGACAUUGAUGGAAGCAGAAACCAAAACUCUUCCCCUGGAGAAUGC: 0.0683 ratio
AGUGCAGAAGGGGACAGUCAGAUUGGUACUGUGGUAGAGCAUGUGGAAGCUGAGGCUGGAGCUGCCAUCAUGAAUGCAAAUGAAAAUAAUGUUGACAGCAUGAGUGGCACAGAGAAAGGA: 0.243 ratio

Block 4
Target: Interferon regulatory factor 3, full length, phosphomimetic (IRF3, Homo sapiens, UniProt Q14653, residues 1-427, S386D/S396D/S398D/S402D/T404D/S405D)
Technique: protein-binding microarray
Form: double-stranded DNA, one strand shown
Medium: in vitro
Concentration: 2540 nM top
Notes: 60-bp whole probe
Added: salmon DNA 0.4 mg/ml
Relative to: random background probes
Direction: higher = stronger binding
Measurement: fitted relative affinity
Shared flanks, not repeated: GCCTAGCAC … GTCTTGATTCGCTTGACGCTGCTG
Target sequence (chain): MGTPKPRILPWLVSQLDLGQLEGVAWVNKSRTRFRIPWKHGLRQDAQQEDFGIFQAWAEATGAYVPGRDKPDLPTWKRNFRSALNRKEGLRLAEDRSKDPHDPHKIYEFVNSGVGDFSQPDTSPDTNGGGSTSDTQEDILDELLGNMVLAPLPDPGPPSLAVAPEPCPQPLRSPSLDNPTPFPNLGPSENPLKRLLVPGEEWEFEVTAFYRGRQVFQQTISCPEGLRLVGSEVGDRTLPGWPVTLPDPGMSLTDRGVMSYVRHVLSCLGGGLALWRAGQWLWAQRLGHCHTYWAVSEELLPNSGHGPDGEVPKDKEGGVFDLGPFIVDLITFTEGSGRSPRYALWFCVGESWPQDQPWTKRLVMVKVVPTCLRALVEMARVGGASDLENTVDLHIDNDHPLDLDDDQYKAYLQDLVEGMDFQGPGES
GAAGGTATCGGACTGGGGACGTGCTAG: 0.901 z-score
GACGGTATCCTTTTCCAGACGTGCTAG: 8.03 z-score
TTAGAACGGAGACTGGATTAGTGCTAG: 0.276 z-score
TTAGGTATCGACTATCGGGTAGTGCTA: 0.205 z-score
GACGGAATGGGACTGGGGACGTGCTAG: -0.612 z-score
GACTATGCCGACTTTGGAAGTGTGCTA: -0.31 z-score
TCCTGTGACGTTAAGGTCTCGTGCTAG: -0.514 z-score
GACGATTGCGGGACTGGAGACGTGCTA: -0.23 z-score
TTAGGTCTCGGTCTCGGTTAGTGCTAG: 1.32 z-score
TTCTGAAGCAGAGCCCTGTTGTGCTAG: -0.198 z-score
CGGCTACCGCGGCTCCTACAGTGCTAG: -0.667 z-score
GACGGACTGCTTCTCCGGACGTGCTAG: -0.0756 z-score
TTAGGACTGGGCTTTCGGTTAGTGCTA: 0.103 z-score
GACGGTCTCCTTTTCCTGACGTGCTAG: 4.52 z-score
GACGGACTGGGGCCTGGGGACGTGCTA: -1.21 z-score
TTAGATATCAGTCTCGATAAGTGCTAG: 1.35 z-score

Repeated from above (block 1):
CACAGACAACACGCACCCACACAGACACAGAGGGAAGAGGUUGGGAUGGGGACAGGGUGCACAGCAGGGCGGGGUAGGACCCCAGCCCCU: -0.0149
GCAGGAAGUAAAAACAAAUGGAAAUGCUUCGGAUAGUGGCAGGGGUGGGGAUUGCUAAGGAAAGGGUGGGAUGGGAGUGGGUAAAGAGUU: 1.37
UGUGCUACACAUCGUAUGUACCGAAUCGGGGUUUUUUUGGGGAAAAAAAGGGGAAAAAGGGGAAAGUAUUAUGUUACGCCGUUCGGAUCU: 0.712
GCAGGAAGUAAAAACAAAUGGAAAUGCUUCGCAUAGUGGCAGGGGUGGGGGUUGCUAAGGAAAGGGUGGGAUGGGAGUGGGUAAAGAGUU: 1.24
GCAGGAAGUAAAAACAAAUGGAAAUGCUUCGGAUAGUGGCAGGGGUGGGGGUUGCUAAGGAAAGAGUGGGAUGGGAGUGGGUAAAGAGUU: 0.817
